Published values collected from several papers.
Each line is one published result; not all experiments were run side by side. Numbers after ± are the reported error.
Organism: Trypanosoma congolense

O=[N+]([O-])c1ccc(/C=N/N=C/c2ccc(O)cc2)o1 — IC50 (parasite growth, CellTiter-Glo; IL3000 bloodstream form; 72 h, 33 °C): 0.2 ± 0.07 µM
COc1ccc(-n2c(-c3cccc(OC)c3O)nc(-c3ccccc3)c2-c2ccccc2)cc1OC — EC50 (parasite viability, luminescence; IL3000 bloodstream form; 72 h, 33 °C): > 25 µg/mL
CCC(NC(=O)CN1C(=O)N/C(=C\c2ccc(C)cc2)C1=O)C(=O)OC (stereo not drawn) — IC50 (parasite growth; 72 h): 66 µM
O=[N+]([O-])c1ccc(/C=N/N=C/c2ccc([N+](=O)[O-])o2)cc1 — IC50 (parasite growth, CellTiter-Glo; IL3000 bloodstream form; 72 h, 33 °C): 0.17 ± 0.06 µM
C=Cc1cn([C@@H]2O[C@H](CO)C[C@H]2O)c2ncnc(N)c12 — EC50 (parasite growth, resazurin; 72 h): 0.056 µM
CCOC(=O)C(C)NC(=O)CN1C(=O)N/C(=C\c2ccc(C)cc2)C1=O (stereo not drawn) — IC50 (parasite growth; 72 h): 36.5 µM
Nc1ncnc2c1c(F)cn2[C@@H]1O[C@H](CO)C[C@H]1O — EC50 (parasite growth, resazurin; 72 h): 0.0052 µM
O=[N+]([O-])c1ccc(/C=N/N=C/c2ccc(Br)cc2)o1 — IC50 (parasite growth, CellTiter-Glo; IL3000 bloodstream form; 72 h, 33 °C): 0.04 ± 0.01 µM
CC(C)Oc1ncnc2c1c(Cl)cn2[C@@H]1O[C@H](CO)[C@@H](O)[C@H]1O — EC50 (parasite growth, resazurin; 72 h): 4.04 µM
CCOC(=O)CNC(=O)CN1C(=O)S/C(=C\c2ccc(C)cc2)C1=O — IC50 (parasite growth; 72 h): 36.2 µM
Oc1ccc(-c2nc(-c3ccccc3)c(-c3ccccc3)[nH]2)cc1 — EC50 (parasite viability, luminescence; IL3000 bloodstream form; 72 h, 33 °C): 19.2 µg/mL
O=[N+]([O-])c1ccc(/C=N/N=C/c2ccc(OCc3ccccc3)cc2)s1 — IC50 (parasite growth, CellTiter-Glo; IL3000 bloodstream form; 72 h, 33 °C): 0.28 ± 0.08 µM
Nc1ncnc2c1c(C(F)(F)F)cn2[C@@H]1O[C@H](CO)[C@@H](O)[C@H]1O — EC50 (parasite growth, resazurin; 72 h): 1.8 µM
Cc1c(O)c(-c2nc(-c3ccccc3)c(-c3ccccc3)[nH]2)cc(-c2nc(-c3ccccc3)c(-c3ccccc3)[nH]2)c1O — EC50 (parasite viability, luminescence; IL3000 bloodstream form; 72 h, 33 °C): 21.2 µg/mL
O=[N+]([O-])c1ccc(/C=N/N=C/c2ccc(Cl)cc2)o1 — IC50 (parasite growth, CellTiter-Glo; IL3000 bloodstream form; 72 h, 33 °C): 0.14 ± 0.05 µM
Nc1ncnc2c1c(Cl)cn2[C@@H]1O[C@H](CO)C[C@H]1O — EC50 (parasite growth, resazurin; 72 h): 0.0012 µM
CCOC(=O)C(NC(=O)CN1C(=O)/C(=C/c2ccc3c(c2)OCO3)SC1=S)C(C)C (stereo not drawn) — IC50 (parasite growth; 72 h): > 69 µM
Cc1ccc(-c2nc(-c3ccccc3)c(-c3ccccc3)[nH]2)s1 — EC50 (parasite viability, luminescence; IL3000 bloodstream form; 72 h, 33 °C): > 25 µg/mL
CCOC(=O)C(CC)NC(=O)CN1C(=O)S/C(=C\c2ccc(C)cc2)C1=O (stereo not drawn) — IC50 (parasite growth; 72 h): > 59 µM
O=[N+]([O-])c1ccc(/C=N/N=C/c2ccc(Br)cc2)s1 — selectivity index (IL3000; relative to: CC50 MDBK over IC50): > 0.12
CCOC(=O)C(CC)NC(=O)CN1C(=O)S/C(=C\c2ccc([N+](=O)[O-])cc2)C1=O (stereo not drawn) — IC50 (parasite growth; 72 h): > 66 µM
O=[N+]([O-])c1ccc(/C=N/N=C/c2ccc(F)cc2)s1 — selectivity index (IL3000; relative to: CC50 MDBK over IC50): 0.06 ± 0.03
CCOC(=O)C(NC(=O)CN1C(=O)N/C(=C\c2ccc3c(c2)OCO3)C1=O)C(C)C (stereo not drawn) — IC50 (parasite growth; 72 h): 40.4 µM
Nc1ncnc2c1c(I)cn2[C@@H]1O[C@H](CO)C[C@H]1O — EC50 (parasite growth, resazurin; 72 h): 0.005 µM
